Measured values collected from several papers.
A part holds a random share of what one study measured.

Series 1
Target: Sal-like protein 4, full length isoform B (SALL4, Homo sapiens, UniProt Q9UJQ4-2, residues 1-616)
Method: universal PBM
Form: double-stranded DNA, one strand shown
Matrix: in vitro
Concentration: not given
Notes: 8-mer, flanks averaged, mean of replicates
Reading: higher = stronger binding
Residues (chain): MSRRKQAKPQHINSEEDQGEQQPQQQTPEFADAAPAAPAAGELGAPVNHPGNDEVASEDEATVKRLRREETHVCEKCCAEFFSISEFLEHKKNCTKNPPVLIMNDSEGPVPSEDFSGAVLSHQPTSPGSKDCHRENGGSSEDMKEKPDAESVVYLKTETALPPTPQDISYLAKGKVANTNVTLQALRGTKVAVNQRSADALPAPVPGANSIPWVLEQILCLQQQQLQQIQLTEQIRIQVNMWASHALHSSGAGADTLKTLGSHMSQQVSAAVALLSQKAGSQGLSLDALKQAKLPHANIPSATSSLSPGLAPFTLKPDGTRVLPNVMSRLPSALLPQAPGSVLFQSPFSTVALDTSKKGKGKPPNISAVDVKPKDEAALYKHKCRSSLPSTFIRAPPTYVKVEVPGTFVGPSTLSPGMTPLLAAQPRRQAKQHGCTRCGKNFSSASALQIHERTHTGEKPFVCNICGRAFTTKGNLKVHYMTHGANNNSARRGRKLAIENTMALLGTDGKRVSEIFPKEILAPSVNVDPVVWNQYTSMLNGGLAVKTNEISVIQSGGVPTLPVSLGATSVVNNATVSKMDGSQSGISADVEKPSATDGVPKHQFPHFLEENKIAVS
| Sequence | E-score |
| --- | --- |
| AACGCCTC | -0.203 |
| CAAACCAC | -0.0152 |
| AACTGCTT | -0.0418 |
| AATTACGG | 0.129 |
| AATGAGGC | -0.133 |

Series 2
Target: Histone acetyltransferase KAT6A, both winged helices, GST fusion (KAT6A, Homo sapiens, UniProt Q92794, residues 1-181)
Method: protein binding microarray
Form: double-stranded DNA, one strand shown
Matrix: in vitro
Concentration: not given
Notes: 8-mer, flanks averaged, mean of 2 arrays, mostly near background
Baseline: not given
Reading: higher = stronger binding
Target sequence (chain): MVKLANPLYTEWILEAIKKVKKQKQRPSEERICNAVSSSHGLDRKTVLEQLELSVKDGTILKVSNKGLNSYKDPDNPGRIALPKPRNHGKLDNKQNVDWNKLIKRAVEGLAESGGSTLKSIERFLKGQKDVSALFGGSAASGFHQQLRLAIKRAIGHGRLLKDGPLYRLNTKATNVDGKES
| Sequence | E-score |
| --- | --- |
| CTAAAACA | -0.0687 |
| ACTGCTTA | -0.253 |
| AATATAGA | 0.0142 |
| GTGCGCTA | 0.162 |

Series 3
Target: Prothrombin, mature alpha-thrombin (F2, Homo sapiens, UniProt P00734)
Method: aptamer microarray, sandwich
Form: DNA with 2'F-ANA
Matrix: in vitro
Concentration: 200 nM
Notes: whole 15-mer aptamer, many near background
Added: Cy3 exosite-II aptamer, 400 nM
Reading: higher = stronger binding
Sequence: GGTTGGTGTGGTTGG
| Modification | mean fluorescence intensity |
| --- | --- |
| 2'F-ANA at 1 2 8 9 11 12 13 15 | 261 a.u. |
| 2'F-ANA at 4 5 7 13 14 15 | 49.6 a.u. |
| 2'F-ANA at 4 5 6 9 11 15 | 65.4 a.u. |
| 2'F-ANA at 1 3 4 5 6 7 8 11 12 13 14 | 48.4 a.u. |
| 2'F-ANA at 1 5 6 7 8 14 | 45.3 a.u. |
| 2'F-ANA at 1 2 5 6 7 8 9 11 12 14 15 | 52.3 a.u. |

Single results of other studies
| Substance | target | assay | system | conditions | how to read | quantity | value |
| --- | --- | --- | --- | --- | --- | --- | --- |
| PhoQ, residues 284 288 289 292 302 303 ALASRC | PhoP, residues 12 14 15 18 19 HLGGL (Escherichia coli, UniProt P23836) | Sort-seq, refers to: YFP reporter | E. coli | PhoQ-PhoP variant library, added: 10 µM Mg2+ | baseline: high Mg2+ state, higher = stronger signaling | fold induction | 4.39 |

A few entries again (series 3):
| Modification | mean fluorescence intensity |
| --- | --- |
| 2'F-ANA at 4 5 6 9 11 15 | 65.4 a.u. |
